# Measurements from different studies.
# Parts stem from different laboratories: compare values within a part only.

# Sample 1 — technique: protein-binding microarray; form: double-stranded DNA, one strand shown; sample: in vitro; concentration: 250 nM; notes: 60-bp whole probe; together with: salmon DNA 0.4 mg/ml; reference: random background probes; direction: higher = stronger binding; constant ends, left off below: GCCTAGCAC … GTCTTGATTCGCTTGACGCTGCTG
# Target: Interferon regulatory factor 5, full length, phosphomimetic (IRF5, Homo sapiens, UniProt Q13568-2, residues 1-514, K96S/S451D/S453D/S456D/S462D)
Sequence,log fluorescence [z-score]
TTAGATTCCGGGTATCGATTAGTGCTA,3.79
TCATATATGCATGTAAAACTGTGCTAG,0.422
GACGTACTGGACTTTCGGGACGTGCTA,4.05
GCCGGACTGGGACTGGGGACGTGCTAG,-0.746
GACGATCTCCGTCTCGAGACGTGCTAG,-0.0213
TTAGGTTTCGGGTTTAGGTTAGTGCTA,8.34

# Sample 2 — technique: protein binding microarray; form: double-stranded DNA, one strand shown; sample: in vitro; concentration: not given; reference: not given; direction: higher = stronger binding
# Target: Histone acetyltransferase KAT6A, winged helix 1, GST fusion (KAT6A, Homo sapiens, UniProt Q92794, residues 1-85)
# Notes: 8-mer, flanks averaged, mean of 2 arrays, mostly near background
# Residues (chain): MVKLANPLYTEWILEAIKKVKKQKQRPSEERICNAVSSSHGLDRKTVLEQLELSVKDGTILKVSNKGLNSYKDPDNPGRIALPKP
Sequence,E-score
AACCAAGT,-0.0923
GAATTACC,0.0516
CCTGCTAC,-0.1
GCCTGTGA,-0.141
CTCCACGA,-0.173
GACAGGGC,0.0959
AAGCCGTC,0.416

# Sample 3 — technique: universal PBM; form: double-stranded DNA, one strand shown; sample: in vitro; concentration: 600 nM; direction: higher = stronger binding
# Target: Sal-like protein 4, full length isoform A (SALL4, Homo sapiens, UniProt Q9UJQ4, residues 1-1053)
# Chain of UniProt Q9UJQ4 (whole entry, looked up): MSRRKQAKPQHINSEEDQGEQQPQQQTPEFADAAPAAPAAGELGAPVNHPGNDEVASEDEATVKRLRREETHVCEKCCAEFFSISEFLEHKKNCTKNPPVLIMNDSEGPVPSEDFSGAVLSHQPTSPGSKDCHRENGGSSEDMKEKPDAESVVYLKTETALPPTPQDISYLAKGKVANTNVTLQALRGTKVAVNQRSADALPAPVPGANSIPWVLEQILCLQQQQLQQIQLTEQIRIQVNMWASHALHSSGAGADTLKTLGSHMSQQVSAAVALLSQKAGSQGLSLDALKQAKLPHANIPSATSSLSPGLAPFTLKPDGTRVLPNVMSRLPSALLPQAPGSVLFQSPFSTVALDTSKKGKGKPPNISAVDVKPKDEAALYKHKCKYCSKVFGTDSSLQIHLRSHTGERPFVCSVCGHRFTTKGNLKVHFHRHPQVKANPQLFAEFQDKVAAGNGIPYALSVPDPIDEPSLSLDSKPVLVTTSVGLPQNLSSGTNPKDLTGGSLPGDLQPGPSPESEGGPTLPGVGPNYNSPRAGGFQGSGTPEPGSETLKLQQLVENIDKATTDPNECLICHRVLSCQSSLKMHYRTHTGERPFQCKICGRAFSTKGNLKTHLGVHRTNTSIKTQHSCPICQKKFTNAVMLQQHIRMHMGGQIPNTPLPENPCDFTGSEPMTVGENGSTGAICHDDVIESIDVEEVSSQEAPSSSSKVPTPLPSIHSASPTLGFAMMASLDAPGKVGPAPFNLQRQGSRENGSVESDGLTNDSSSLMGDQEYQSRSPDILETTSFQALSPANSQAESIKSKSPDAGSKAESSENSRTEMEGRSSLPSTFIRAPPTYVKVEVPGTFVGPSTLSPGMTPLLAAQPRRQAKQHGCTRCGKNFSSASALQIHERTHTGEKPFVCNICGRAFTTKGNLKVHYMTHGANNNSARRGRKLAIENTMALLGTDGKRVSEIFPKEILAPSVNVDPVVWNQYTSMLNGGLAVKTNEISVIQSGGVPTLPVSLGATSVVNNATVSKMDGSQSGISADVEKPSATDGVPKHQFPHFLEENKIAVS
# Notes: 8-mer, flanks averaged, mean of replicates
Sequence,E-score
AAAGGGTT,0.0132
CCCAGCCG,-0.341
ACCGCGCA,-0.238
ACCCGCGA,-0.208
AATCATTG,0.27
GACCCGAC,-0.28
AGGTCCCG,-0.358

# Further values, each from its own experiment
Substance,target,assay,test system,conditions,how to read,measurement,result
"PhoQ, residues 284 288 289 292 302 303 ALVSVA","PhoP, residues 12 14 15 18 19 QQAYL (Escherichia coli, UniProt P23836)","Sort-seq, item: YFP reporter",E. coli,"PhoQ-PhoP variant library, together with: 10 µM Mg2+","reference: high Mg2+ state, higher = stronger signaling",fold induction,21
